Results pooled from the literature.
Lines come from different studies, so protocols differ. Several values in a cell are separate wells, animals, samples, runs or records. ± gives the spread as reported.
rep main protease: Replicase polyprotein 1ab, main protease (rep, Severe acute respiratory syndrome coronavirus 2, UniProt P0DTD1)
rep papain-like protease: Replicase polyprotein 1ab, papain-like protease (rep, Severe acute respiratory syndrome coronavirus 2, UniProt P0DTD1)

| Compound | target or system | test | system | setting | measurement | value |
| --- | --- | --- | --- | --- | --- | --- |
| O=c1c2ccccc2[se]n1-c1cccnc1 | rep main protease | enzyme activity, inhibitor |  | 0.3 µM | inhibition | 49.9% |
| C[C@](C(=O)NC1CCC(F)(F)CC1)(c1cncnc1)N(C(=O)[C@H](F)Cl)c1ccc(OC(F)(F)F)cc1 | rep main protease | enzyme activity, inhibitor |  | 34 nM | inhibition | 41.6% |
| Cc1ccnc(-n2[se]c3ccccc3c2=O)c1 | rep main protease | enzyme activity, inhibitor |  | 0.3 µM | inhibition | 14.6% |
| COc1cccc(NC(=O)CSc2ccccc2C(=O)Nc2ccc3c(c2)NC(=O)C(C)O3)c1 (stereo not shown) | rep papain-like protease | enzyme activity, inhibitor |  | 100 µg/mL | inhibition | 0% |
| COc1ccc(-c2cc(=O)c3c(O)cc(O)cc3o2)cc1Oc1ccc(-c2cc(=O)c3c(O)cc(O)cc3o2)cc1 | rep papain-like protease | enzyme activity, inhibitor |  | 10 µM | inhibition | 65.6 to 98% |
| CC(=O)Nc1ccc(-c2cnc(N3C(=O)C(Cl)C3c3cc4ccccc4nc3Cl)s2)cc1 (stereo not shown) | rep papain-like protease | enzyme activity, inhibitor |  | 10 µM | inhibition | 77.9% |
| CC1C(NC(=O)c2ccccc2[Se][Se]c2ccccc2C(=O)NC2CC3CC(C2C)C3(C)C)CC2CC1C2(C)C (stereo not shown) | rep main protease | enzyme activity, inhibitor |  | 40 µM | inhibition | 94% and 92.2% |
| O=C(c1ccc([N+](=O)[O-])c(-n2ccnc2)c1)N(c1cccc(Cl)c1)c1nc2ccccc2s1 | rep main protease | reporter gene, inhibitor | HEK293T | 10 µM, primary screen, wild type | inhibition | 9.8% |
| O=C(O)C[C@H](NC(=O)c1ccccc1[Se][Se]c1ccccc1C(=O)N[C@@H](CC(=O)O)C(=O)O)C(=O)O | rep main protease | enzyme activity, inhibitor |  | 40 µM | inhibition | 97.8% |
| COc1ccc(-c2cc(=O)c3c(O)c(Oc4ccc(-c5cc(=O)c6c(O)cc(O)cc6o5)cc4)c(OC)cc3o2)cc1 | rep papain-like protease | enzyme activity, inhibitor |  | 10 µM | inhibition | 65.6 to 98% |
| O=C(NC1CCC(F)(F)CC1)C(c1cncnc1)N(C(=O)C(F)Cl)c1ccc(-c2cncs2)cc1 (stereo not shown) | rep main protease | enzyme activity, inhibitor |  | 0.309 µM | inhibition | 94.9% |
| O=C(NC1CCN(c2ncnc3[nH]cnc23)CC1)c1cccc(NS(=O)(=O)c2ccc(C(F)(F)F)cc2)c1 | Replicase polyprotein 1ab, nsp14 with nsp10 (rep, Severe acute respiratory syndrome coronavirus 2, UniProt P0DTD1) | exonuclease activity | SARS-CoV-2 | 0.04883 µM | inhibition | 2.3% |
| COc1cc(Oc2c(O)cc(C)cc2OC)c(C(=O)O)c(C)c1O | rep main protease | enzyme activity, FRET |  | 10 µM | inhibition | 71.1 ± 1.7% |
| CC(=O)Oc1cccc2c1C(=O)C=CC2=O | rep main protease | enzyme activity, inhibitor |  | 10 µM | inhibition | 101% |
| COC(=O)c1cc2c(=O)n3ccccc3nc2n1Cc1ccccc1 | rep main protease | enzyme activity, inhibitor |  | 1 mM | inhibition | 62% |
| c1ccc(C[Se][Se]Cc2ccccc2)cc1 | rep main protease | enzyme activity, inhibitor |  | 40 µM, mean of repeats | inhibition | 75.1% |
| COc1c(O[C@@H]2O[C@H](C(=O)O)[C@@H](O)[C@H](O)[C@H]2O)cc(O)c2c(=O)cc(-c3ccccc3)oc12 | rep main protease | enzyme activity, inhibitor |  | 50 µM | inhibition | 8.5% |
| O=C(Oc1cncc(Cl)c1)c1ccc2[nH]ccc2c1 | rep main protease | enzyme activity, inhibitor, fluorescence |  | 10 µM, pH 7.2 | inhibition | 99% |
| CCCCCCCCCCCCCCCC(=O)N[C@@H](CCC(=O)NCCOCCOCCC(=O)NCCOCCOCCC(=O)NCCCC[C@H](NC(=O)[C@H](CC(=O)O)NC(=O)[C@H](CC(C)C)NC(=O)[C@H](Cc1ccc(O)cc1)NC(=O)[C@H](CCCCN)NC(=O)[C@H](CO)NC(=O)[C@H](Cc1ccc(O)cc1)NC(=O)[C@H](CC(=O)O)NC(=O)[C@H](CO)NC(=O)[C@@H](NC(=O)[C@H](Cc1ccccc1)NC(=O)[C@@H](NC(=O)CNC(=O)[C@H](CCC(N)=O)NC(=O)[C@@H](CO)NC(=O)[C@@H](N)Cc1c[nH]cn1)[C@@H](C)O)[C@@H](C)O)C(=O)N[C@@H](CCCNC(=N)N)C(=O)N[C@@H](CCCNC(=N)N)C(=O)N[C@@H](C)C(=O)N[C@@H](CCC(N)=O)C(=O)N[C@@H](CC(=O)O)C(=O)N[C@@H](Cc1ccccc1)C(=O)N[C@H](C(=O)N[C@@H](CCC(N)=O)C(=O)N[C@@H](Cc1c[nH]c2ccccc12)C(=O)N[C@@H](CC(C)C)C(=O)N[C@@H](CC(C)C)C(=O)N[C@@H](CC(N)=O)C(=O)N[C@H](C(=O)NCC(=O)NCC(=O)N1CCC[C@H]1C(=O)N[C@@H](CO)C(=O)N[C@@H](CO)C(=O)NCC(=O)N[C@@H](C)C(=O)N1CCC[C@H]1C(=O)N1CCC[C@H]1C(=O)N1CCC[C@H]1C(=O)N[C@@H](CO)C(N)=O)[C@@H](C)O)C(C)C)C(=O)O |  |  | rhesus monkey, plasma | subcutaneous, 5 µg/kg, single dose | MRT | 5.68 h |

| Compound | target or system | test | system | setting | measurement | value |
| --- | --- | --- | --- | --- | --- | --- |
| C[C@@H]1C[C@H]2[C@@H](C[C@H]1n1[se]c3ccccc3c1=O)C2(C)C | rep main protease | enzyme activity, inhibitor |  | 40 µM, mean of repeats | inhibition | 102% |
| O=C(O[C@@H]1Cc2c(O)cc(O)cc2O[C@@H]1c1ccc(O)c(O)c1)c1cc(O)c(O)c(O)c1 | rep main protease | intracellular protease activity | HEK293T | 100 µM | inhibition | 79.7 ± 1.7% |
| C[C@](C(=O)NC1CCOCC1)(c1cncnc1)N(C(=O)[C@H](F)Cl)c1ccc(OC(F)(F)Cl)cc1 | rep main protease | enzyme activity, inhibitor |  | 10 µM | inhibition | 100% |
| C=C1CC[C@@H]2[C@](C)(COC(C)=O)[C@H](OC(C)=O)CC[C@@]2(C)[C@@H]1C[C@H](SC(=S)N1CCN(C(c2ccccc2)c2ccc(Cl)cc2)CC1)C1=CCOC1=O (stereo partly shown) | rep main protease | enzyme activity, inhibitor, fluorescence |  | 10 µM | inhibition | > 50% |
| O=c1cc(-c2ccc(O)cc2)oc2c([C@@H]3OC[C@H](O)[C@H](O)[C@H]3O)c(O)c([C@@H]3O[C@H](CO)[C@@H](O)[C@H](O)[C@H]3O)c(O)c12 | rep papain-like protease | enzyme activity, inhibitor |  | 8 µM | inhibition | 60% |
| COC(=O)C[C@H](NC(=O)c1ccccc1[Se][Se]c1ccccc1C(=O)N[C@@H](CC(=O)OC)C(=O)OC)C(=O)OC | rep main protease | enzyme activity, inhibitor |  | 40 µM, mean of repeats | inhibition | 106% |
| CC(=O)Nc1ccc(S(=O)(=O)NNc2ncnc3sccc23)cc1 | Replicase polyprotein 1ab, nsp3 macrodomain (rep, Severe acute respiratory syndrome coronavirus 2, UniProt P0DTD1) | ADP-ribosylhydrolase activity, gel-based |  | concentration not given | inhibition | inhibited |
| COc1ccc(NC(=O)Cn2c(=O)n(CCC(=O)NC3CCCC3)c(=O)c3cc(OC)c(OC)cc32)cc1 | rep main protease | enzyme activity, inhibitor |  | 100 µg/mL | inhibition | 3.6% |
| O=c1c2ccccc2[se]n1-c1cccc(F)c1 | rep main protease | enzyme activity, inhibitor |  | 0.3 µM | inhibition | 71.6% |
| O=c1c2ccccc2sn1-c1ccccc1 | rep main protease | enzyme activity, inhibitor |  | 10 µM | inhibition | 97.3% |
| CC1C(n2[se]c3ccccc3c2=O)CC2CC1C2(C)C (stereo not shown) | rep main protease | enzyme activity, inhibitor |  | 40 µM | inhibition | 102% |
| O=C(Oc1cncc(Cl)c1)c1c[nH]c2ccccc12 | rep main protease | enzyme activity, inhibitor, fluorescence |  | 10 µM, pH 7.2 | inhibition | 45% |
| O=C(O)c1ccccc1[Se][Se]c1ccccc1C(=O)O | rep main protease | enzyme activity, inhibitor |  | 40 µM | inhibition | 23.5% |
| O=C(OCC(=O)c1ccc([N+](=O)[O-])cc1)/C(=C/c1ccc(Cl)cc1)NC(=O)c1ccccc1 | rep main protease | enzyme activity, inhibitor |  | 100 µM | inhibition | 99.3% |
| COc1cc(-n2[se]c3ccccc3c2=O)ccn1 | rep main protease | enzyme activity, inhibitor |  | 0.3 µM | inhibition | 29.7% |
| O=C(NC1CCC(F)(F)CC1)C(c1cncnc1)N(C(=O)C(F)Cl)c1ccc(OC(F)(F)F)cc1 (stereo not shown) | rep main protease | enzyme activity |  | 0.926 µM | inhibition | 100% and 90.3% |
| CNc1nc(NC(CCO)c2ccccc2Cl)nc(N2CCN(C(=O)CCl)CC2)n1 (stereo not shown) | rep main protease | inhibitor |  | 1 µM | inhibition | inhibited |
| COc1ccc(C(=O)Nc2ccccc2C(=O)NC(C(=O)NNC(=O)c2ccccc2O)C(C)C)cc1 (stereo not shown) | rep papain-like protease | enzyme activity, inhibitor |  | 100 µg/mL | inhibition | 0% |

A few entries again:
| Compound | target or system | test | system | setting | measurement | value |
| --- | --- | --- | --- | --- | --- | --- |
| C[C@](C(=O)NC1CCOCC1)(c1cncnc1)N(C(=O)[C@H](F)Cl)c1ccc(OC(F)(F)Cl)cc1 | rep main protease | enzyme activity, inhibitor |  | 10 µM | inhibition | 100% |
| CC(=O)Oc1cccc2c1C(=O)C=CC2=O | rep main protease | enzyme activity, inhibitor |  | 10 µM | inhibition | 101% |
| COc1cccc(NC(=O)CSc2ccccc2C(=O)Nc2ccc3c(c2)NC(=O)C(C)O3)c1 (stereo not shown) | rep papain-like protease | enzyme activity, inhibitor |  | 100 µg/mL | inhibition | 0% |
| O=c1c2ccccc2[se]n1-c1cccnc1 | rep main protease | enzyme activity, inhibitor |  | 0.3 µM | inhibition | 49.9% |
